Measured values gathered from unrelated publications.
Every numbered part comes from another study and shows a few of its results, in no order. Changes are numbered by the printed parent chain.

Sample 1
Target: Interferon regulatory factor 7, full length, phosphomimetic (IRF7, Homo sapiens, UniProt Q92985, residues 1-503, S471D/S472D/S475D/S476D/S477D/S483D/S484D/S487D)
Technique: protein-binding microarray
Molecule type: double-stranded DNA, one strand shown
Sample: in vitro
Tested at: 2200 nM top
Notes: 60-bp whole probe
Together with: salmon DNA 0.4 mg/ml
Reference: random background probes
Direction: higher = stronger binding
Constant ends, left off below: GCCTAGCAC … GTCTTGATTCGCTTGACGCTGCTG
Construct (chain): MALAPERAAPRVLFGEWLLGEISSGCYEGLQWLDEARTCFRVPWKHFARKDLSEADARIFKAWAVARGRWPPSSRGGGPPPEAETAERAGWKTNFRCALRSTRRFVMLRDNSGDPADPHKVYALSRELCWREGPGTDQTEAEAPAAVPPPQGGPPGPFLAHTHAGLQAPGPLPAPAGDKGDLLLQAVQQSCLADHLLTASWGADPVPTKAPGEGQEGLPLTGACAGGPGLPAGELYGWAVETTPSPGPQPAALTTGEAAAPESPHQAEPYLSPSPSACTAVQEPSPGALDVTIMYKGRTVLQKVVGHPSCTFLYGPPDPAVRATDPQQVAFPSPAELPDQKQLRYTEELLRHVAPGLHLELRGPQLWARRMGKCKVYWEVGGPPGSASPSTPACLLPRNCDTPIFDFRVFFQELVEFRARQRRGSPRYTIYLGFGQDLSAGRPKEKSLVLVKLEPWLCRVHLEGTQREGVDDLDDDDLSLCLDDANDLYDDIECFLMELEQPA
`AACGGTTCCGGTTTCGGGACGTGCTAG`: “fitted relative affinity” 5.79 z-score.
For `TTAGGACAGGACACTGGGTTAGTGCTA`, “fitted relative affinity” read -0.839 z-score.
Under “fitted relative affinity”, `TTAGAACTGAGTATCGCTTAGTGCTAG` is recorded as -0.26 z-score.
For `TCATTCCTCTTTCTTTGACTGTGCTAG`, “fitted relative affinity” read 2.68 z-score.
`GACGGTATCAGTCTCGGGACGTGCTAG`: “fitted relative affinity” 0.117 z-score.
`TTAGAACTGAGGCTCGATTAGTGCTAG` — result for “fitted relative affinity”: -0.641 z-score.
For `TGAAATCTCTTTCCTTACTTGTGCTAG`, “fitted relative affinity” read 1.2 z-score.
`GCAAGAGGAAAGGAACATCAGTGCTAG` — result for “fitted relative affinity”: -0.326 z-score.
For `GACGATATCAAACTGGAGACGTGCTAG`, “fitted relative affinity” read -0.268 z-score.
For `TTAGAACTGGGGATTGGATTAGTGCTA`, “fitted relative affinity” read -0.212 z-score.
`GGGAGATGACTAAGAGGGGTGTGCTAG` — result for “fitted relative affinity”: -0.903 z-score.

Sample 2
Target: CCNE1, cyclin fold, Cln2 fusion (human)
Technique: yeast growth competition, sequencing
Sample: yeast
Notes: strong parent motif
Reference: not given
Direction: higher = stronger binding
Starting sequence: E2F1 docking peptide (human); PPVKRRLDFETDH; partner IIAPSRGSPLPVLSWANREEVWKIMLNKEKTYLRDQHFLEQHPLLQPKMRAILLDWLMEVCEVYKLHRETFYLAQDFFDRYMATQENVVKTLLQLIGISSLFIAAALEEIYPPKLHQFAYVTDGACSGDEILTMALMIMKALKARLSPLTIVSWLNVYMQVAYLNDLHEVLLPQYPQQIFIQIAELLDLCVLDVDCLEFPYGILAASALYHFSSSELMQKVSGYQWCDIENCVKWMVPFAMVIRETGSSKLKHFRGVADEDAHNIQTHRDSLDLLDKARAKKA
For `V3R`, “normalised enrichment score” read 0.572.
Under “normalised enrichment score”, `P2F` is recorded as 5.88.
`K4P`: “normalised enrichment score” 2.54.
For `D8Y`, “normalised enrichment score” read 6.72.
`R6L`: “normalised enrichment score” 3.34.
For `K4A`, “normalised enrichment score” read 4.92.
For `K4L`, “normalised enrichment score” read 2.5.
`T11A` — result for “normalised enrichment score”: 5.74.
`T11D` — result for “normalised enrichment score”: 6.09.
`E10N`: “normalised enrichment score” 6.64.

Sample 3
Target: PABPC1L2, full length, GST fusion (mouse, UniProt A0ABA7IW68)
Technique: RNAcompete
Molecule type: RNA
Sample: in vitro
Tested at: 20 nM
Notes: 7-mer, probes averaged, single round
Reference: mean of 7-mers
Direction: higher = stronger binding
Target sequence (chain): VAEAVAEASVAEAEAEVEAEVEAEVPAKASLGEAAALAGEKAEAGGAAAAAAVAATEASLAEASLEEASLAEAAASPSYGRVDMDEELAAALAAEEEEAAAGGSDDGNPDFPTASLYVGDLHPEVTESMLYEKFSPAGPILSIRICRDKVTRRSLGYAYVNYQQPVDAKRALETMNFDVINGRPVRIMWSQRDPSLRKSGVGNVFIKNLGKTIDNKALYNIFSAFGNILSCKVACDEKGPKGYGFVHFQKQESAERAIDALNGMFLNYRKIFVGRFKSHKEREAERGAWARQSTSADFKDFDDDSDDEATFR
With `AUAGGGC` the 7-mer Z-score was 0.191.
For `AUGCCUU`, the 7-mer Z-score was -0.202.
`CUCGGCG` has a 7-mer Z-score of -0.228.
`ACGAGGU` has a 7-mer Z-score of 0.1.
The 7-mer Z-score of `UCGACCC` is reported as -0.286.
The 7-mer Z-score of `GAUCUGG` is reported as -0.0971.

Other studies, line by line
With `PhoQ, residues 284 288 289 292 302 303 ALAMYF` the fold induction was 12 (PhoP, residues 12 14 15 18 19 NQFFI (Escherichia coli, UniProt P23836); Sort-seq, refers to: YFP reporter; E. coli; PhoQ-PhoP variant library, together with: 10 µM Mg2+; reference: high Mg2+ state, higher = stronger signaling).

For quick reference, copied from above (sample 1):
For `TCATTCCTCTTTCTTTGACTGTGCTAG`, “fitted relative affinity” read 2.68 z-score.
Under “fitted relative affinity”, `TTAGAACTGAGTATCGCTTAGTGCTAG` is recorded as -0.26 z-score.
For `TTAGGACAGGACACTGGGTTAGTGCTA`, “fitted relative affinity” read -0.839 z-score.
